Measured values from different studies.
Numbered parts are unrelated; each lists some results of a single study. Several values in a cell are separate wells, animals, samples, runs or records.

Series 1
Target: Mitogen-activated protein kinase 14 (MAPK14, Homo sapiens, UniProt Q16539)
Sequence of UniProt Q16539 (whole entry, looked up): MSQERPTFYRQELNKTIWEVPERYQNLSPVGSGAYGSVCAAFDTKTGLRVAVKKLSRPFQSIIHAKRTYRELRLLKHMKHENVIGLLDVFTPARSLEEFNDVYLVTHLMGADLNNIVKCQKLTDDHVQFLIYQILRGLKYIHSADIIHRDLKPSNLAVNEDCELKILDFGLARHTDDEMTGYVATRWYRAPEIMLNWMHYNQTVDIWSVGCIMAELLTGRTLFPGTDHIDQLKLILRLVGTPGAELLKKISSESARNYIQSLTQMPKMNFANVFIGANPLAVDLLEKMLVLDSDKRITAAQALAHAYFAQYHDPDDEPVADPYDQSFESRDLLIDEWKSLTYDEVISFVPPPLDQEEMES
Effect on: enzyme activity
Action: inhibitor
Concentration: 0.5 µM
Baseline: control
The remaining activity of CC(C)[C@H](CO)Nc1nc(Nc2cc(N)cc(Cl)c2)c2ncn(C(C)C)c2n1 is reported as 98.9%.
Nc1[nH]nc2nc3ccccc3nc12 has a remaining activity of 96.6%.
With O=c1c2ccccc2[nH]c(=S)n1CCN1CCC(=C(c2ccc(F)cc2)c2ccc(F)cc2)CC1 the remaining activity was 99%.
With CN(C)c1ccc(C=C2C(=O)Nc3ccccc32)cc1 the remaining activity was 92.4%.
With Nc1ncnc2n[nH]c(Nc3ccc(F)cc3)c12 the remaining activity was 79.5%.
The remaining activity of COc1cc2ncnc(Nc3ccc(F)c(Cl)c3)c2cc1OCCCN1CCOCC1 is reported as 74.6%.
For O=S(=O)(c1cccc2cnccc12)N1CCCNCC1, the remaining activity was 104%.
COc1ccc(C(=O)Nc2sc3c(c2C(N)=O)CCCC3)cc1OC gave a remaining activity of 97.5%.
With OCC(O)CCON=C1C(c2c(O)[nH]c3ccccc23)=Nc2ccccc21 (stereo not drawn) the remaining activity was 101%.
With N#CC(C#N)=C(N)/C(C#N)=C/c1ccc(O)cc1 the remaining activity was 104%.
With CO[C@H]1C[C@@H]2CC[C@@H](C)[C@@](O)(O2)C(=O)C(=O)N2CCCC[C@H]2C(=O)O[C@H]([C@H](C)C[C@@H]2CC[C@@H](O)[C@H](OC)C2)CC(=O)[C@H](C)/C=C(\C)[C@@H](O)[C@@H](OC)C(=O)[C@H](C)C[C@H](C)/C=C/C=C/C=C/1C the remaining activity was 99.1%.
CCOC(=O)c1c(C)[nH]c(/C=C2\C(=O)Nc3ccccc32)c1C gave a remaining activity of 134%.
The remaining activity of Nc1ccc2ncnc(NCCc3ccc(Oc4ccccc4)cc3)c2c1 is reported as 95.7%.

Series 2
Cell line: HuT78
Concentration: 2 µM
Time: 48 h
Baseline: untreated
CCn1c2ccccc2c2cc(Nc3ccnc(NCCCN4CCOCC4)n3)ccc21 has a viability of 88.9%.
The viability of C=CC(=O)Nc1cccc(Nc2nc(Nc3ccc(NC4CN(CCF)C4)cc3OC)ncc2C(F)(F)F)c1 is reported as 84.8%.
For Cc1[nH]c2ccccc2c1C1=C(NCCc2ccc(F)cc2)C(=O)N(C)C1=O, the viability was 139%.
With COc1cccc(-c2cc(=O)c3ccccc3o2)c1N the viability was 123%.
Cc1cc(N2CCOCC2)cc2[nH]c(-c3c(NC[C@@H](O)c4cccc(Cl)c4)cc[nH]c3=O)nc12 gave a viability of 144%.
With C[C@H](Nc1ncnc2nc[nH]c12)c1cc2cccc(Cl)c2c(=O)n1-c1ccccc1 the viability was 90.1%.
The viability of Cn1c(Nc2ccc(C(F)(F)F)cc2)nc2cc(Oc3ccnc(-c4ncc(C(F)(F)F)[nH]4)c3)ccc21 is reported as 117%.
With COc1ccc2c(c1)c(C1=C(c3c[nH]c4ccccc34)C(=O)NC1=O)cn2CCCN(C)C the viability was 126%.
O=C(c1cccc(Cl)c1F)N1CCN(Cc2cccc(Nc3nccs3)n2)CC1 gave a viability of 62.9%.
O=C1NC(=O)C(=Cc2ccc(-c3ccc(F)cc3)o2)S1 (stereo in doubt) has a viability of 149%.

Series 3
Cell line: normal-adjacent epithelium patient-derived organoids sample E
Method: CellTiter-Glo
Concentration: 1 µM
Baseline: DMSO
CCNC(=O)c1cc2c(N3CCOC[C@H]3C)ccnc2n1C has a viability of 120% and 106%.
With COc1cc(Nc2nccc(-c3cnn4nc(OC)ccc34)n2)cc(C(F)(F)F)c1 the viability was 41.2%.
For Cc1cc2c(-c3ccco3)cnc(N[C@@H]3CCN(C)C[C@H]3C(=O)NC3CCCCC3)c2[nH]c1=O, the viability was 71.3%.
With CCCCNc1ncc(-c2ccc(CN3CCOCC3)cn2)c(NC2CCC(O)CC2)n1 (stereo not drawn) the viability was 120% and 128%.
The viability of Cc1ccc(NC(=O)Nc2cc(C(F)(F)F)ccc2F)cc1Nc1ccc2c(c1)NC(=O)/C2=C\c1ccc[nH]1 is reported as 59.3%.
With Cn1cc(-c2ccc3occ(-c4cccc(-c5ccncc5)c4)c3n2)cn1 the viability was 82.7%.

Series 4
Organism: Sarcocystis neurona
Effect on: parasite growth
Concentration: 10 µM
Time: 96 h
Setting: second screen
Baseline: untreated
Under “log2 fold change”, COc1cc([C@@H]2c3cc4c(cc3[C@@H](O[C@@H]3O[C@@H]5CO[C@@H](C)O[C@H]5[C@H](O)[C@H]3O)[C@H]3COC(=O)[C@H]23)OCO4)cc(OC)c1O is recorded as 0.54.
For C[C@H]1COc2c(N3CCN(C)CC3)c(F)cc3c(=O)c(C(=O)O)cn1c23, “log2 fold change” read 0.12.
O=C(c1ccccc1)c1ccc2n1CCC2C(=O)O (stereo not drawn) — result for “log2 fold change”: 0.75.
Cc1[nH]cnc1CN1CCc2c(c3ccccc3n2C)C1=O — result for “log2 fold change”: 0.62.
CS(=O)(=O)OCCCCOS(C)(=O)=O: “log2 fold change” 0.0661.
CNNCc1ccc(C(=O)NC(C)C)cc1 — result for “log2 fold change”: 0.2.
Under “log2 fold change”, O=C(NCCO[N+](=O)[O-])c1cccnc1 is recorded as 0.5.

Some of these lines once more (series 2):
For Cc1[nH]c2ccccc2c1C1=C(NCCc2ccc(F)cc2)C(=O)N(C)C1=O, the viability was 139%.
With COc1cccc(-c2cc(=O)c3ccccc3o2)c1N the viability was 123%.
Cc1cc(N2CCOCC2)cc2[nH]c(-c3c(NC[C@@H](O)c4cccc(Cl)c4)cc[nH]c3=O)nc12 gave a viability of 144%.
